# Assay results gathered from unrelated publications.
# Compare with care: the assays were run in different laboratories. “And” joins repeats or separate records; there may be more than shown. ± marks the error that the study gave.
# Nuclear receptor subfamily 2 group C member 2 ligand-binding domain: Nuclear receptor subfamily 2 group C member 2, ligand-binding domain (Homo sapiens, UniProt P49116)
# Chain of UniProt P49116 (whole entry, looked up): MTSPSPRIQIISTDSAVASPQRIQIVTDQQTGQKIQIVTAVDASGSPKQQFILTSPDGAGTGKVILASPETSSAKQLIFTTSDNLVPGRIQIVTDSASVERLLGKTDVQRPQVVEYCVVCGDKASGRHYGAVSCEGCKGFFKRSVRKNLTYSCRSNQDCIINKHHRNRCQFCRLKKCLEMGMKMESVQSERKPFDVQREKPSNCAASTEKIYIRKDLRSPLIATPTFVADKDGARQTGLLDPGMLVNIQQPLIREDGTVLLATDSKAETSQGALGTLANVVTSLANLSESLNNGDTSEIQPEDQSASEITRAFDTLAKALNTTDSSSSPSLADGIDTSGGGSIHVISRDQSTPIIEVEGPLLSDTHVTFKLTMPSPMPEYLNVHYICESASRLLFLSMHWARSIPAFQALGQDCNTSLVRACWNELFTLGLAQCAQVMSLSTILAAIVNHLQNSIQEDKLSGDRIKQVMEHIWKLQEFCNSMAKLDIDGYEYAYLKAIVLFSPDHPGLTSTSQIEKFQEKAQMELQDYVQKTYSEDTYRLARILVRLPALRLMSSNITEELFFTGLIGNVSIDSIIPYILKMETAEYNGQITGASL
# YWHAG/RELA phospho-Ser45 p65 peptide: YWHAG/RELA, phospho-Ser45 p65 peptide (Homo sapiens, UniProt P61981+Q04206)
# Chain of UniProt P61981 (whole entry, looked up): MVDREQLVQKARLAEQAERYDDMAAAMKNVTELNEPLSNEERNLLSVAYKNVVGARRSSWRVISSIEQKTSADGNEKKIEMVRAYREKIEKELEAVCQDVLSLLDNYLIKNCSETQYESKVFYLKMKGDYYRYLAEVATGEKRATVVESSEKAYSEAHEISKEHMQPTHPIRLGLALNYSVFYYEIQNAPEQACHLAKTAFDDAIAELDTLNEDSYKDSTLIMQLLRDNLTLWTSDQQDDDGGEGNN
# Chain of UniProt Q04206 (whole entry, looked up): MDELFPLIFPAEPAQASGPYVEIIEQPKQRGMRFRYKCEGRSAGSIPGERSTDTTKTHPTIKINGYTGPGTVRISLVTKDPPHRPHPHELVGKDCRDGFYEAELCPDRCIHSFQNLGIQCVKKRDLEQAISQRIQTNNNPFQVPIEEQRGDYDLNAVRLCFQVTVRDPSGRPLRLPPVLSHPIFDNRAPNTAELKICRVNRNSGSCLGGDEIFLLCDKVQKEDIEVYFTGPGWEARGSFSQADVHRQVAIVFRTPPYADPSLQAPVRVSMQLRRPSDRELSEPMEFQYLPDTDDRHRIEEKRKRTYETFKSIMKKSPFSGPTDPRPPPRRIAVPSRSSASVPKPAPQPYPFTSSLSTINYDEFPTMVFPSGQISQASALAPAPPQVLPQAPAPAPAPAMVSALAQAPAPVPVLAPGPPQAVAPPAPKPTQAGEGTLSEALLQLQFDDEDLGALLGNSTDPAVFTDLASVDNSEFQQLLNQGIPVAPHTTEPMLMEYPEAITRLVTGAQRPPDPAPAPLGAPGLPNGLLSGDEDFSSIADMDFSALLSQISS
SMILES,target or system,test,test system,conditions,how to read,endpoint,result
Cc1cccc(C)c1OCC(C)N (stereo not drawn),Nuclear receptor subfamily 2 group C member 2 ligand-binding domain,binding,,,,Kd,15.1 nM
CC(=O)O[C@@]12CO[C@@H]1C[C@H](O)[C@@]1(C)C(=O)[C@H](O)C3=C(C)[C@@H](OC(=O)[C@H](O)[C@@H](NC(=O)OC(C)(C)C)c4ccccc4)C[C@@](O)([C@@H](OC(=O)c4ccccc4)[C@H]21)C3(C)C,compound-resistant VCaP-AI,trypan blue exclusion,,"0.002 µM, 72 h",,inhibition of cell proliferation,< 20%
CCn1c(=O)/c(=C2\Sc3cc(Cl)ccc3N2C)s/c1=C\c1scc[n+]1Cc1ccccc1,iPSC-derived cardiomyocytes,"concentration-response curve, item: MyBP-C/MYH ratio",,24 h,,EC50,25.5 µM
CCN(CC)CCCC(C)Nc1ccnc2cc(Cl)ccc12 (stereo not drawn),hiPSC-derived ventricular cardiomyocytes,"current clamp, externally paced",,5 µM,reference: pre-drug control,APD90 prolongation,121% and 61.1% and 136% and 97.8%
O=Cc1ccc(C(=O)N2CCOCC2)cc1,YWHAG/RELA phospho-Ser45 p65 peptide,"ternary complex formation, stabilizer, fluorescence anisotropy",,,,EC50,> 1000 µM
CC1=NN(c2ccc(C(=O)O)cc2)C(=O)/C1=C\c1ccc(-c2cc(C)c(C)cc2[N+](=O)[O-])o1,OCI-Ly1,,,"1 µM, 120 h",,viability,95%
COc1cc2ncnc(Nc3ccc(Oc4ccccc4)cc3C)c2cc1OC.O=C(O)C(F)(F)F,COLO 205 (BRAF V600E),resazurin,,"0.3 µM, 72 h, added: trametinib 0 nM",,fractional effect,6%
Nc1ncnc2c1ncn2[C@@H]1O[C@H](CO)[C@@H](O)[C@H]1O,activated human T cells,item: ADP,,30 µM,reference: DMSO,log2 fold change,0.7 and 0.432 and 0.3
O=C(COc1cccc2c1C(=O)N(C1CCC(=O)NC1=O)C2=O)NCCOCCOCCNS(=O)(=O)Nc1cccc(-c2cn3cc(C(=O)NC4CCC4)ccc3n2)c1 (stereo not drawn),MV4-11,"TMT proteomics, item: RPLP2",whole proteome,"10 µM, 4 h",reference: DMSO,log2 fold change,0.006
CCOC(=O)CSc1nc(-c2ccc(Cl)cc2)c2c(NC(=O)c3ccccc3)nnc-2[nH]1,786-0,NCI60 SRB,,10 µM,,growth percent,101%
O=C(O)c1cc(/N=N/c2ccc(O)c(C(=O)O)c2)ccc1O,Nuclear receptor subfamily 2 group C member 2 ligand-binding domain,SPR imaging,,,,Kd,0.0321 nM
Cn1cc(-c2ccc(-c3cncc(Cl)c3N3CCC4(CCNC4=O)CC3)cc2)cn1,COLO 205,"gene expression, microarray, item: TFRC mRNA",,"concentration not given, 6 h",reference: untreated cells,log2 fold change,-1.26
C#C[C@@]1(O)[C@@H](CO)O[C@@H](n2cc(Cl)c3c(N)ncnc32)[C@@H]1O,786-0,"cell growth, SRB",,,,TGI,1.34 µM and 1.31 µM
CCn1cc(-c2cc(Cn3ccnc3)cc3c2CCN([C@H](c2cc(OC)ccn2)C2CC2)C3=O)c(C(F)(F)F)n1,SNU878,"cell growth, inhibitor",,120 h,,EC50,21.2 µM
C[C@H](Nc1ccc2c(c1)OCCn1cc(N3C(=O)OC[C@H]3C(F)F)nc1-2)C(N)=O,KPL4,CellTiter-Glo,,120 h,,Hill coefficient GR curve,1.1
O=[N+]([O-])c1ccc(O)cc1,human cells,"reporter gene, agonist, luciferase reporter",,,reference: positive control,fitted curve top,0%
CC(=O)Nc1cccc(-n2c(=O)n(C3CC3)c(=O)c3c(Nc4ccc(I)cc4F)n(C)c(=O)c(C)c32)c1,COLO 205 (BRAF V600E),,,6.25 nM,reference: DMSO,fractional effect,89%
Cc1nc(Nc2ncc(C(=O)Nc3c(C)cccc3Cl)s2)cc(N2CC[C@H](O)C2)n1,NAMALWA,"cell proliferation, CellTiter-Glo",,"10 µM, 72 h",,inhibition,59%
COCCOCc1ccc(-c2cc3onc(-c4ccccc4)c3c(=O)n2C)cc1,COS-7,,,"3 µM, 24 h, 0.1% DMSO, unit not given",reference: vehicle control,apoptotic cells,0.88 ± 0.03
CC1CCCN(c2cc(C=O)ccc2[N+](=O)[O-])C1 (stereo not drawn),YWHAG/RELA phospho-Ser45 p65 peptide,"ternary complex formation, stabilizer, fluorescence anisotropy",,,,EC50,> 1000 µM
CC(C)NCCCn1c(Sc2cc3c(cc2I)OCO3)nc2c(N)ncnc21,human cells,plate-normalised,,"concentration not given, hit retest","reference: vehicle controls, SDs below control",MyBP-C level change,6.28 SD
O=C(O)CC[C@H](NC(=O)N[C@@H](CCCCNC(=O)[C@H](Cc1ccc2ccccc2c1)NC(=O)CCCCCNC(=O)CN1CCN(CC(=O)O)CCN(CC(=O)O)CCN(CC(=O)O)CC1)C(=O)O)C(=O)O [gallium-68 labelled],,gamma counting,"mouse, 22Rv1 xenograft, muscle","intravenous, 3.7 MBq, 2 h",,tissue uptake,2.29 ± 0.36 %ID/g
C[C@H]1[C@H](C)CC[C@]2(C)CC[C@]3(C)C(=CC(=O)[C@@H]4[C@@]5(C)CC[C@@H](O)[C@](C)(C(=O)NCc6cn(-c7cccc(Br)c7)nn6)[C@@H]5CC[C@]43C)[C@H]12,human PBMCs,flow cytometry,,5 µM,reference: CD8- T cells,TIGIT positive cells,11.6%
CCCCN1CCN(c2ccc3[nH]c(-c4ccc5[nH]c(-c6ccc(OCC)cc6)nc5c4)nc3c2)CC1,786-0,"cell growth, NCI-60 SRB",,"10 µM, 48 h",,growth percent,75.3%
CCCCN1C[C@H](O)[C@@H](O)[C@@H](O)[C@H]1CO,sample BB patient fibroblasts,"Gb3 level lowering, LC-MS/MS, item: Gb3 d18:1/22:0",,216 h,,IC50,15.1 µM
CCC(=O)N1CCOc2c(cc(-c3ccc(OC)c(OC)c3)cc2OC[C@H]2CCCN(C)C2)C1,OCI-Ly1,,,"0.5 µM, 120 h",,viability,125%
CCCCc1nc(Cl)c(CO)n1Cc1ccc(-c2ccccc2-c2nn[nH]n2)cc1,human PBMC,"RNA-seq, item: HMGN2P46 mRNA",,"10 µg/mL, 24 h",reference: untreated control,log2 fold change,1.9
CCCCCCCCCCCCCCCc1cccc(O)c1C(=O)O,OCI-Ly1,,,"1 µM, 120 h",,viability,157%
[Cl-].[Cl-].[Ru+2].c1cnc2c(c1)ccc1cccnc12.c1cnc2c(c1)ccc1cccnc12.c1csc(-c2ccc(-c3ccc(-c4nc5c6cccnc6c6ncccc6c5[nH]4)s3)s2)c1,SK-MEL-28,,,"concentration not given, 1% O2, added: 633 nm light",,photocytotoxicity,inactive
CCn1c2ccc(CNC)cc2c2ccc(-c3cc(C)cs3)cc21,U2OS p53 wild type,cell viability,,"10 µM, 72 h, highest concentration tested",,inhibition,30 to 40%
Cc1cccc(-c2[nH]c(CNc3ccccc3F)nc2-c2ccc3ncnn3c2)n1,pomalidomide-resistant MM1.S cells,XTT,,2 µM,higher = more viable cells,XTT absorbance,1.8 E-1 and 2.3 E-1 and 1.9 E-1
COc1cc(/C=C/C(=O)N2CCC=CC2=O)cc(OC)c1OC,MDA-MB-468,"quantitative RT-PCR, item: ENO1",,"30 µM, 8 h",reference: untreated cells,mRNA level,104%
O=C(/C=C/C=C/C=C/C1CCCCC1)NC1=C[C@@](O)(/C=C/C=C/C=C/C(=O)NC2=C(O)CCC2=O)[C@@H]2O[C@@H]2C1=O,SJSA-1,"cell growth, CellTiter-Glo",,78 h,,GI50,14.4 µM
COc1ccc(Cn2ccc3ccc(C(=O)NO)cc32)cc1,OCI-Ly1,,,"1 µM, 120 h",,viability,89.7%
Cc1nc2cc(N(Cc3ccc(F)cc3)Cc3ccc(F)cc3)ccc2s1,sample A patient iPSC-derived NPCs,MTS,,"10 µM, 24 h",reference: vehicle,viability,100 ± 1.59%
C[C@@H](O)[C@@H](CO)NC(=O)[C@@H](CCCNC(=N)N)NC(=O)[C@@H]1CCCN1C(=O)[C@@H]1CSSC[C@H](NC(=O)[C@H](Cc2ccccc2)NC(=O)CN2CCN(CC(=O)O)CCN(CC(=O)O)CCN(CC(=O)O)CC2)C(=O)N[C@@H](Cc2ccc(O)cc2)C(=O)N[C@@H](Cc2ccccc2)C(=O)N[C@@H](CCC(N)=O)C(=O)N[C@@H](CC(N)=O)C(=O)N1 [gallium-68 labelled],,,PBS,"4 h, 37 °C",,radiochemical purity,> 98%
CCc1cnc(N2CCC(c3nc(COc4ccc(-n5cnnn5)cc4)cs3)CC2)nc1,HEK293T,"RNA-seq, item: HSPD1 mRNA",,"10 µM, 6 h",reference: vehicle,log2 fold change,-0.0575
Cc1cc(Nc2ncc(Cl)c(Nc3ccccc3S(=O)(=O)C(C)C)n2)c(OC(C)C)cc1C1CCNCC1,CLB-GE,"phosphoproteomics LC-MS/MS, item: IRS2 phosphorylation",,"200 nM, 60 min",reference: untreated,log2 fold change,-11.8
COc1cnc2cccc(N3CCc4c(cc(Cn5ccnc5C)cc4-c4cn(C)nc4C(F)(F)F)C3=O)c2c1,SNU308,cell growth,,120 h,,EC50,0.232 µM
O=C(/C=C/N1C[C@H]2C[C@@H]1CN2c1ccccn1)c1ccccc1O,OCI-Ly1,,,"1 µM, 120 h",,viability,40.7%
CN(C)c1ccc2nc3ccc(=[N+](C)C)cc-3sc2c1,mouse CA1 pyramidal neurons,patch clamp,hippocampal slices,10 µM,,mIPSC charge transfer,decreased
C#CCCC1(CCC(=O)N2[C@@H](c3cccc(F)c3)c3[nH]c4ccccc4c3C[C@H]2C(=O)OC)N=N1,HeLa stably expressing GFP-LC3,autophagy,,"concentration not given, 4 h",,LC3 puncta,decreased
CCCCCCCCCc1ccc(OCCOCCOCCOCCOCCOCCOCCOCCOCCO)cc1,iPSC-derived cardiomyocytes,concentration-response fit,,concentration not given,reference: vehicle,fitted bottom MyBP-C level,0%
COc1cc2c(c(OC)c1OC)C(=O)c1c(cc(C)c(O)c1OC)C2=O,HepaRG co-cultured with HK-2,MTT,,"33.33 µM, 24 h",reference: untreated control,cell viability,99.8 ± 7.69%
Cc1nc2ccc(NCc3ccc(C(F)(F)F)cc3)cc2[nH]1,sample A patient iPSC-derived NPCs,MTS,,"10 µM, 24 h",reference: vehicle,viability,124 ± 18.1%
COc1cc2c(NC3CCN(CC4CCCCC4)CC3)nc(N3CCCN(C(C)C)CC3)nc2cc1OCCCN1CCCCC1,OCI-Ly1,,,"1 µM, 120 h",,viability,88.8%
C=CCNC1=C2C[C@@H](C)C[C@H](OC)[C@H](O)[C@@H](C)/C=C(\C)[C@H](OC(N)=O)[C@@H](OC)/C=C\C=C(/C)C(=O)NC(=CC1=O)C2=O,iPSC-derived cardiomyocytes,"concentration-response curve, item: MyBP-C protein level",,24 h,,EC50,8.2 µM
O=C(/C=C/c1ccc(O)cc1)c1ccc(O)cc1O,OCI-Ly1,,,"0.5 µM, 120 h",,viability,153%
CCn1cc(-c2cc(Cn3ccoc3=N)cc3c2CCN([C@@H](C)c2cc(OC)ccn2)C3=O)c(C(F)(F)F)n1,KMS-11,"cell growth, inhibitor",,120 h,,EC50,0.135 µM
CC(C)N(C[C@H]1O[C@@H](n2cnc3c(N)ncnc32)[C@H](O)[C@@H]1O)[C@H]1C[C@@H](CCc2nc3cc(C(C)(C)C)ccc3[nH]2)C1,OCI-Ly1,,,"0.1 µM, 120 h",,viability,187%
C=Cc1c2[n-]c(c1C)/C=c1\[n-]/c(c(C)c1C=C)=C\c1[n-]c(c(CCC(=O)O)c1C)/C=c1\[n-]c(c(C)c1CCC(=O)O)=C2.[Sn+4],SH-SY5Y,"RNA-seq, item: TGM2 mRNA",,"5 µM, 5 h",reference: untreated cells,fold change,2.2
